Assay results pooled from the literature.
Each line is one published result; not all experiments were run side by side. Values joined by “and” are separate records of one study, mostly repeats; a detail may differ. Numbers after ± are the reported error.
Genome polyprotein NS3 helicase domain: Genome polyprotein, NS3 helicase domain (Hepatitis C virus genotype 1b, UniProt Q9WMX2)
ESR1: Estrogen receptor (ESR1, Homo sapiens, UniProt P03372)
TLE4: Transducin-like enhancer protein 4 (TLE4, Homo sapiens, UniProt Q04727)
WD repeat-containing protein 91 WD40 domain, residues 392–747: WD repeat-containing protein 91, WD40 domain, residues 392–747 (Homo sapiens, UniProt A4D1P6)
CALM1 Ca2+-bound N-lobe: Calmodulin-1, Ca2+-bound N-lobe (CALM1, Homo sapiens, UniProt P0DP23)

Compound | target | assay | test system | setting | how to read | measurement | result
CC(C)c1ccc2c(c1)c(SC(C)(C)C)c(CC(C)(C)C(=O)O)n2Cc1ccc(Cl)cc1 | Genome polyprotein NS3 helicase domain | DNA binding, inhibitor | hepatitis C virus | 100 µM, with: Cy5-dT15 DNA |  | inhibition | 0%
Nc1ncnc2c1ncn2[C@@H]1O[C@H](COP(=O)(O)CP(=O)(O)OP(=O)(O)O)[C@@H](O)[C@H]1O | P2X purinoceptor 1 (P2RX1, Homo sapiens, UniProt P51575, K136W) | saturation binding | HEK293 | 52 nM |  | specific binding | 3080 CCPM and 2440 CCPM
O=C1CC[C@H](N2Cc3c(ccc4c3OCC43CCN(C[C@@H]4CCC5(CCN(c6ccc([C@@H]7c8ccc(O)cc8CC[C@@H]7c7ccccc7)cc6)CC5)OC4)CC3)C2=O)C(=O)N1 | ESR1 | degrader, western blot | MCF7 | 10 and 100 nM, 7 h |  | ER level reduction | > 80%
CC1(C)CC2(C)OC(=O)NC2(C)c2ccccc21 (stereo not drawn) | TLE4 | binding, affinity selection mass spectrometry |  |  | baseline: other proteins in batch | fold enrichment | 1.31
COc1ccc(-c2oc3c(CC=C(C)C)c(O[C@@H]4O[C@H](CO)[C@@H](O)[C@H](O)[C@H]4O)cc(O)c3c(=O)c2O)cc1 | ESR1 | array formation | PRL-HeLa |  | baseline: EC50 ERβ over EC50 ERα | selectivity ratio | 0.267
COC(=O)C1=C(C)NC(C)=C(C(=O)OC(C)(C)CN(C)CCC(c2ccccc2)c2ccccc2)C1c1cccc([N+](=O)[O-])c1.COC(=O)C1=C(C)NC(C)=C(C(=O)OC(C)(C)CN(C)CCC(c2ccccc2)c2ccccc2)C1c1cccc([N+](=O)[O-])c1.Cl.Cl.O (stereo not drawn) | Genome polyprotein NS3 helicase domain | DNA binding, inhibitor | hepatitis C virus | 100 µM, with: Cy5-dT15 DNA |  | inhibition | 3%
Clc1ccc(-n2c(-c3ccccc3Cl)nc3c(N4CCC(Nc5ccccc5)CC4)ncnc32)cc1 | CNR1 (Homo sapiens, UniProt P21554) | binding, [3H]CP55940 displacement |  |  | baseline: Ki CB2 over Ki CB1 | selectivity ratio | > 1600
CC(C)NCC(O)COc1cccc2ccccc12 (stereo not drawn) | Glutamate receptor 2 (Homo sapiens, UniProt P42262) | ion current, agonist, SyncroPatch patch clamp | HEK293 | 3 µM |  | activation | 3%
C=CC(=O)N1CCC(COCC(=O)N2CCN(c3nc(-c4cnc(N)nc4C(F)F)nc(N4CCOC[C@@H]4C)n3)CC2)CC1 | RIPK4 (Homo sapiens, UniProt P57078) | KINOMEscan |  | 1 µM |  | remaining binding | 100%
C=CC(=O)N1CCN(C(=O)c2ccco2)CC1 | 14-3-3 protein sigma, with ERα phosphopeptide (SFN, Homo sapiens, UniProt P31947) | binding, fluorescence polarization |  | covalent ligand screen, with: phosphorylated ERalpha peptide | baseline: control | FP signal | 95.2%
N#CC1CCN(C(=O)c2ccc(NC3COC3)cc2)CC1 | WD repeat-containing protein 91 WD40 domain, residues 392–747 | binding, SPR single-concentration screen |  | 45 µM |  | SPR response | -12.9 RU and -4.2 RU
CC(C)(O)c1ccc(-c2nc3cc(NC(=O)c4cnc(OCc5ccccc5)nc4)ccc3c(=O)[nH]2)cc1 | TNKS2 (Homo sapiens, UniProt Q9H2K2) | PARylation, inhibitor, biochemical PARylation |  |  | baseline: TNKS1 IC50 over TNKS2 IC50 | selectivity ratio | 389
COc1cc(NC(=O)c2cscn2)ccc1/N=N/c1ccccc1Cl | GRM5 (Homo sapiens, UniProt P41594) | positive allosteric modulator, IP accumulation | HEK293 | 30 µM, in the dark, with: low-dose orthosteric agonist |  | activation | -11.5%
CC[C@H](C)[C@H](NC(=O)[C@H](CCCCN)NC(=O)CNC(=O)[C@@H](NC(=O)[C@@H](NC(=O)[C@H](CCSC)NC(=O)[C@H](Cc1c[nH]cn1)NC(=O)CN)[C@@H](C)O)C(C)C)C(=O)N[C@@H](Cc1ccc(O)cc1)C(=O)N[C@@H](C)C(=O)N[C@@H](C)C(=O)N[C@@H](C)C(=O)N[C@@H](CCSC)C(=O)N[C@H](C(=O)N[C@@H](CCSC)C(=O)N[C@@H](CCC(=O)O)C(=O)N[C@@H](Cc1ccc(O)cc1)C(=O)N[C@@H](Cc1ccc(O)cc1)C(=O)N[C@@H](CCCNC(=N)N)C(=O)N[C@@H](CCC(N)=O)C(=O)N[C@@H](CO)C(=O)N[C@@H](CCCCN)C(=O)N[C@@H](C)C(=O)N[C@@H](CCCCN)C(=O)N[C@@H](CCCCN)C(=O)N[C@@H](CC(C)C)C(=O)N[C@@H](CCC(N)=O)C(=O)N[C@@H](C)C(=O)N[C@@H](CCSC)C(=O)N[C@@H](CCCNC(=N)N)C(=O)O)[C@@H](C)CC | CALM1 Ca2+-bound N-lobe | binding, isothermal titration calorimetry |  | pH 7.4, 15 °C, N-lobe, CaV2.1 IQ domain, with: Ca2+ |  | ΔH | -4.63 ± 0.14 kcal/mol
N#Cc1cccc2c1CC[C@H]2NC(=O)c1ccc(SCc2cn3ccccc3n2)cc1 | WD repeat-containing protein 91 WD40 domain, residues 392–747 | binding, SPR single-concentration screen |  | 45 µM |  | SPR response | 30.2 RU and 48.2 RU
COc1cc(Nc2nccc(-c3cnn4nc(OC)ccc34)n2)cc(C(F)(F)F)c1 | HIPK2 (Homo sapiens, UniProt Q9H2X6) | NanoBRET target engagement | live cells | concentration not given, no binding |  | binding | no binding
Nc1c(Br)cc(Br)cc1CN[C@H]1CC[C@H](O)CC1 | Voltage-gated potassium channel, KQT; KCNQ2(Kv7.2)/KCNQ3(Kv7.3) (KCNQ3/KCNQ2, Homo sapiens, UniProt O43525+O43526) | ion current, antagonist, SyncroPatch patch clamp | HEK293 | 30 µM |  | inhibition | 23%

Compound | target | assay | test system | setting | how to read | measurement | result
CC(C)NCC(O)COc1ccc(COCCOC(C)C)cc1.CC(C)NCC(O)COc1ccc(COCCOC(C)C)cc1.O=C(O)/C=C/C(=O)O (stereo not drawn) | Genome polyprotein NS3 helicase domain | DNA binding, inhibitor | hepatitis C virus | 100 µM, with: Cy5-dT15 DNA |  | inhibition | 2%
C[C@@H](c1ccc(-n2cnc3c(N)ncnc32)cc1)N1CCc2nn(C)c(Cc3ccccc3)c2C1=O | CIT (Homo sapiens, UniProt O14578) | KINOMEscan |  | 0.1 µM | baseline: DMSO control | remaining binding | 100%
CC(C)=CCc1cc2c(cc1O)O[C@H](c1ccc(O)cc1)CC2=O | ESR1 | array formation | PRL-HeLa |  | baseline: EC50 ERβ over EC50 ERα | selectivity ratio | 59.8
CC[C@H](C)[C@H](NC(=O)[C@H](CCSC)NC(=O)[C@H](CCSC)NC(=O)[C@H](C)NC(=O)[C@H](C)NC(=O)[C@H](Cc1ccc(O)cc1)NC(=O)[C@H](C)NC(=O)[C@H](CCCCN)NC(=O)CNC(=O)[C@@H](NC(=O)[C@@H](NC(=O)[C@H](CCSC)NC(=O)[C@H](Cc1c[nH]cn1)NC(=O)CN)[C@@H](C)O)C(C)C)C(=O)N[C@@H](CCSC)C(=O)N[C@@H](CCC(=O)O)C(=O)N[C@@H](Cc1ccc(O)cc1)C(=O)N[C@@H](Cc1ccc(O)cc1)C(=O)N[C@@H](CCCNC(=N)N)C(=O)N[C@@H](CCC(N)=O)C(=O)N[C@@H](CO)C(=O)N[C@@H](CCCCN)C(=O)N[C@@H](C)C(=O)N[C@@H](CCCCN)C(=O)N[C@@H](CCCCN)C(=O)N[C@@H](CC(C)C)C(=O)N[C@@H](CCC(N)=O)C(=O)N[C@@H](C)C(=O)N[C@@H](CCSC)C(=O)N[C@@H](CCCNC(=N)N)C(=O)O | CALM1 Ca2+-bound N-lobe | binding, isothermal titration calorimetry |  | pH 7.4, 15 °C, N-lobe, CaV2.1 IQ domain, with: Ca2+ |  | ΔS | 23.2 ± 0.4 cal/mol/K
COc1ccc(-c2oc3cc(O)cc(O)c3c(=O)c2O)cc1 | ESR1 | array formation | PRL-HeLa |  | baseline: EC50 ERβ over EC50 ERα | selectivity ratio | 1.58
CC1CCCN(C(=O)c2cc3ncccn3n2)C1 (stereo not drawn) | TLE4 | binding, affinity selection mass spectrometry |  |  | baseline: other proteins in batch | fold enrichment | 1.15
COc1cc(/C=C/c2cc(/C=C/c3ccc(O)c(OC)c3)n(-c3cccc([N+](=O)[O-])c3)n2)ccc1O | haemin | binding, isothermal titration calorimetry |  | pH 7.4, 37 °C |  | ΔH | -23.877 ± 0.0191 kcal/mol
O=C(COP(=O)(O)O)[C@@H](O)[C@H](O)[C@H](O)COP(=O)(O)O | SEC23-interacting protein (Homo sapiens, UniProt Q9Y6Y8) | thermal proteome profiling, refers to: SEC23IP | HepG2 cell lysate | concentration not given, 57 over 37 °C | baseline: compound over control | thermal stability ratio | 0.583 and 0.102 and 0.636
CC[C@H](C)[C@H](NC(=O)[C@H](CCSC)NC(=O)[C@H](CCSC)NC(=O)[C@H](C)NC(=O)[C@H](C)NC(=O)[C@H](Cc1ccc(O)cc1)NC(=O)[C@@H](NC(=O)[C@H](CCCCN)NC(=O)CNC(=O)[C@@H](NC(=O)[C@@H](NC(=O)[C@H](CCSC)NC(=O)[C@H](Cc1c[nH]cn1)NC(=O)CN)[C@@H](C)O)C(C)C)[C@@H](C)CC)C(=O)N[C@@H](C)C(=O)N[C@@H](CCC(=O)O)C(=O)N[C@@H](Cc1ccc(O)cc1)C(=O)N[C@@H](Cc1ccc(O)cc1)C(=O)N[C@@H](CCCNC(=N)N)C(=O)N[C@@H](CCC(N)=O)C(=O)N[C@@H](CO)C(=O)N[C@@H](CCCCN)C(=O)N[C@@H](C)C(=O)N[C@@H](CCCCN)C(=O)N[C@@H](CCCCN)C(=O)N[C@@H](CC(C)C)C(=O)N[C@@H](CCC(N)=O)C(=O)N[C@@H](C)C(=O)N[C@@H](CCSC)C(=O)N[C@@H](CCCNC(=N)N)C(=O)O | CALM1 Ca2+-bound N-lobe | binding, isothermal titration calorimetry |  | pH 7.4, 15 °C, N-lobe, CaV2.1 IQ domain, with: Ca2+ |  | stoichiometry | 1.16 ± 0.18
CCN1CCC[C@H]1CNC(=O)c1c(O)c(Cl)cc(Cl)c1OC | G-protein coupled receptor 61 (GPR61, Homo sapiens, UniProt Q9BZJ8) | β-arrestin recruitment, TANGO luminescence, refers to: GPR61 |  | concentration not given | baseline: basal luminescence | log2 fold change | 0.163
Cc1[nH]c(C)c(S(=O)(=O)Nc2ccc(C(F)(F)F)c(Cl)c2)c1C(=O)N1CCC(F)(F)C1 | DRD3 (Homo sapiens, UniProt P35462) | binding | membranes | 100 µM, with: [3H]dopamine |  | Bmax increase | 19%
CCN(CC)CCn1c(=O)c(Cc2ccc(OC)cc2)nc2ccccc21.Cl | Genome polyprotein NS3 helicase domain | DNA binding, inhibitor | hepatitis C virus | 100 µM, with: Cy5-dT15 DNA |  | inhibition | 0%
CC(C)(C)OC(=O)N1CCCC(c2ccc(C(=O)N3CCC(C#N)CC3)cc2)C1 (stereo not drawn) | WD repeat-containing protein 91 WD40 domain, residues 392–747 | binding, SPR single-concentration screen |  | 45 µM |  | SPR response | 4.5 RU and -3.8 RU
O=C(O)c1cc(O)cc(C(=O)O)n1 | Genome polyprotein NS3 helicase domain | DNA binding, inhibitor | hepatitis C virus | 100 µM, with: Cy5-dT15 DNA |  | inhibition | 0%
N#CC1CCN(C(=O)c2ccc(Cn3cc(-c4ccc5c(c4)NCCO5)nn3)cc2)CC1 | WD repeat-containing protein 91 WD40 domain, residues 392–747 | SPR |  | 45 µM |  | binding | -41% and -21%
COC(=O)c1cn(C)c2ccc(-c3cccnc3)cc12 | Nuclear receptor subfamily 4 group A member 3, ligand-binding domain (Homo sapiens, UniProt Q92570) | reporter gene, Gal4 hybrid reporter |  | 10 µM | baseline: vehicle | activation | 0.54 fold
